Measured values collected from several papers.
Each numbered part is a random draw from the data of one study; scales do not carry over between parts.

Study 1
Target: RNA binding protein fox-1 homolog 2, RRM domain, GST-SBP tag (RBFOX2, Homo sapiens, UniProt O43251-10, residues 100-194)
Method: RNA Bind-n-Seq
Molecule type: RNA
Sample: in vitro
Tested at: 365 nM
Notes: natural RNA segment, single round, ends assumed
Baseline: no-protein control
Reading: higher = stronger binding
Endpoint: RBNS enrichment (R)
Residues (chain): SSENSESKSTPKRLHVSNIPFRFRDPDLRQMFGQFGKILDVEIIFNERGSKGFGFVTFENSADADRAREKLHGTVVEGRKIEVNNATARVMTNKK
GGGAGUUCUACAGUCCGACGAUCGGUCUAUGAAGACCAGUGGUAGUGCCCAGACUUCUCCUAGACAUCUAGUCUAAAACAUUCUCCUAGGACCAGGGAAGCCUGGCUUACAGUGCCAUUUCUGCUGGGCACCAUGGAAUUCUCGGGUGCCAA: 0.27
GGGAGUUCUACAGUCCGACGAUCUAGACCAUAACUAUACUGCUUUCAUCUGGUUCACCCCCUCUAUGUCAAGAGUCAAACUGUGUGAGAAAAGCCAAAGAUUUUUUUUUGAGUCCUUUUGAAGACAGCUAGCUUGGAAUUCUCGGGUGCCAA: 0.469
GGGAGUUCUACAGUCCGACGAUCGAAAAUCACACCACCUGACAGGCCUUCUGGGCCUCCAAAGCCCAUCCUUGGGGUUCCCCCUCCCUGUGUGAAAUGUAUUAUCACCAGCAGACACUGCCGGGCCUCCCUCCUGGAAUUCUCGGGUGCCAA: 0.315
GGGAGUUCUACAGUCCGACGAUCCCUCUUGUUAGAAAAGUCUGUGUUUAUAUACAGGCUGUAAGUUUGUGAUUGAUAAAAAGAAGAUGAGUGUUAAUUAGCCUCCAGUGAAAAUAUACUGAAAGCCUGUUUUCUGGAAUUCUCGGGUGCCAA: 0.532
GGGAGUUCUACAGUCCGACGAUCGCAAAUGUUGGAUUAUAUAUCAAAGGAAAAGCUUAGUUUCAGAGAGGAGGAAGGGAAAGAGAUGUGAGGGAAGCAUUUCAUCAACCAGCUACGUCCCCCUUAGAAGGAUCUGGAAUUCUCGGGUGCCAA: 1.66
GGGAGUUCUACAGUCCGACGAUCAAAAUUUAUCGGCCUUUCUCAUUUACCUGCUCUAGUAUUAUUGUAUUGUGUGUGCGUGCGUGUGUGAUGUCAGGCUGCCACGUAAAACUUCAGAGAAAAAUCUUAAAAGCUGGAAUUCUCGGGUGCCAA: 1.19
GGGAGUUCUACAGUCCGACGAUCAUAAUUCUAAAUCCCUCGAUAUUUUUAAAGAUCUGUAAGUAACUUCACAUUAAAAAAUGAAAUAUUUUUUAAUUUAAAGCUUACUCUGUCCAUUUAUCCACAGGAAAGUGUGGAAUUCUCGGGUGCCAA: 0.784
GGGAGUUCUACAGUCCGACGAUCAGACCUGGUACCGGGUCUGUGGUAGAGAGUAAAGACCAAGGGAGUAGAGAGAUCCCAGCCCUGGGAGGAGAAGGAAGUUGGGUCAGGCCUCGGUACAAAGGGAAAACACUUGGAAUUCUCGGGUGCCAA: 0.809

Study 2
Target: RING finger protein unkempt homolog, zinc fingers 1-6, GST-SBP tag (UNK, Homo sapiens, UniProt Q9C0B0, residues 30-357)
UniProt Q9C0B0, sequence (30-357, looked up): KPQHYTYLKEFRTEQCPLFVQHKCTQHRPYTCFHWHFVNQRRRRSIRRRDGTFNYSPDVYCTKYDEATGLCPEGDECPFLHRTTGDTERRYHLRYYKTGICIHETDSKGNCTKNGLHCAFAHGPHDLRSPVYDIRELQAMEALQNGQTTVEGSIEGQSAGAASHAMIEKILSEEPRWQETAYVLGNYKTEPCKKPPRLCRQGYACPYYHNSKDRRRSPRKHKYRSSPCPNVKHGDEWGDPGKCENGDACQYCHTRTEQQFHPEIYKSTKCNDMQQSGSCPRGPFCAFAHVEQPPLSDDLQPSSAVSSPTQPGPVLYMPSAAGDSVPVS
Method: RNA Bind-n-Seq
Molecule type: RNA
Sample: in vitro
Tested at: not given
Notes: RNA with constant flanks, human and mouse sites, ends assumed
Baseline: input RNA pool
Reading: higher = stronger binding
Endpoint: bound/input enrichment
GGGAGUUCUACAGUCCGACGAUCAGUUGGCGCUUCAGCAGCUGAAUGCCGUUGCCUCCCAUGGUUCAACACCACCUUAUACUUUUUUAAAUCAGGCAUUCUUGAAAGUAGCCAUGUCGAGACCCAGGUUUAAUCCUCGAGGGACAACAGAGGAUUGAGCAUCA: 0.394 ratio
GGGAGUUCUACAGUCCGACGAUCAGCAUGGACUCGAAAGCAAAUAUUGUACAUGGUCUAUCAGUCUUGGAAAUCUGUCUUAUAAUAGCAAUGAAACAUUUAAAUGACAUCUAUGAGGAAGAGCCAUUUAAUUUUCAAAUGGUCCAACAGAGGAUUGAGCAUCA: 0.413 ratio
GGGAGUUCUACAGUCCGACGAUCACUAAGCAGGAAGGGAUGGAAGGCCUCCUUGGGACUCUAGUGCAGCUUCUGGGUUCCGAUGAUAUAAAUGUGGUCACCUGUGCAGCUGGAAUUCUCUCUAACCUCACUUGCAAUAAUUACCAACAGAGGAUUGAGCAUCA: 0.226 ratio
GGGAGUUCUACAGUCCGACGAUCAAUGAAUCAUUGAACAAUCUUUUUAUUACAGAAGAAGAUUAUCAGGCUCUGCGAACAUCAAUAGAUGCUUAUGACAACUUUGACAAUAUCUCGCUUGCUCAGCGUUUGGAAAAACAUGAACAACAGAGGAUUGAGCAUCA: 0.177 ratio
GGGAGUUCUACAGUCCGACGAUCCUGUUCAUGGGCAAUCUGAGGAAUAAAUGUUUGCAGUGGCCCCCAAGCGAUUCUGCUUUUGAAACCAACACCACUUCCUACUUUAAUGGCACAAUGGAUUCAAAUGGGACAUUUGUUAAUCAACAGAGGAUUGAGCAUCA: 0.143 ratio
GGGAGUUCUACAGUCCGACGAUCCGAGCGAGAAGGCACGGAGUCGCCGCGGAGCGCAGGUUGCUUUCCUGUUGCAUCUUUGAUAUCAUUUCCUAGACUCUACUCCAUGAUUUAACUUGAAAUUCUGAAAUGAAGAUGGAGGAGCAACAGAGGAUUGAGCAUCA: 0.19 ratio
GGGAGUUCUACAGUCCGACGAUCCUCAGUGCUGGCUCCAGUGAGAGCUGUGGAGGUCUCUUGCCUUCUCCAGGUUGGGUUUCUCUGUUUUUGUGGUCGGAUAGUCAUGGCUCUUGUCCCUGAAGCUCUGUAUUGUGCCUCCUGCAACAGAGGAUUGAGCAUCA: 0.3 ratio
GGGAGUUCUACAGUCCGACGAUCGCACGCCUUGCUAGUUUAAUGAAUCUUGGAAUGAGUUCUUCAUUGAAUCAACAAGGAGCUCAUAGUGCACUGUCUUCUGCUAGUACUUCUUCCCAUAAUUUGCAGUCUAUAUUUAACAUUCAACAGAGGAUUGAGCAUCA: 0.628 ratio

Study 3
Target: Sal-like protein 4, full length isoform A (SALL4, Homo sapiens, UniProt Q9UJQ4, residues 1-1053)
UniProt Q9UJQ4, sequence (whole entry, looked up): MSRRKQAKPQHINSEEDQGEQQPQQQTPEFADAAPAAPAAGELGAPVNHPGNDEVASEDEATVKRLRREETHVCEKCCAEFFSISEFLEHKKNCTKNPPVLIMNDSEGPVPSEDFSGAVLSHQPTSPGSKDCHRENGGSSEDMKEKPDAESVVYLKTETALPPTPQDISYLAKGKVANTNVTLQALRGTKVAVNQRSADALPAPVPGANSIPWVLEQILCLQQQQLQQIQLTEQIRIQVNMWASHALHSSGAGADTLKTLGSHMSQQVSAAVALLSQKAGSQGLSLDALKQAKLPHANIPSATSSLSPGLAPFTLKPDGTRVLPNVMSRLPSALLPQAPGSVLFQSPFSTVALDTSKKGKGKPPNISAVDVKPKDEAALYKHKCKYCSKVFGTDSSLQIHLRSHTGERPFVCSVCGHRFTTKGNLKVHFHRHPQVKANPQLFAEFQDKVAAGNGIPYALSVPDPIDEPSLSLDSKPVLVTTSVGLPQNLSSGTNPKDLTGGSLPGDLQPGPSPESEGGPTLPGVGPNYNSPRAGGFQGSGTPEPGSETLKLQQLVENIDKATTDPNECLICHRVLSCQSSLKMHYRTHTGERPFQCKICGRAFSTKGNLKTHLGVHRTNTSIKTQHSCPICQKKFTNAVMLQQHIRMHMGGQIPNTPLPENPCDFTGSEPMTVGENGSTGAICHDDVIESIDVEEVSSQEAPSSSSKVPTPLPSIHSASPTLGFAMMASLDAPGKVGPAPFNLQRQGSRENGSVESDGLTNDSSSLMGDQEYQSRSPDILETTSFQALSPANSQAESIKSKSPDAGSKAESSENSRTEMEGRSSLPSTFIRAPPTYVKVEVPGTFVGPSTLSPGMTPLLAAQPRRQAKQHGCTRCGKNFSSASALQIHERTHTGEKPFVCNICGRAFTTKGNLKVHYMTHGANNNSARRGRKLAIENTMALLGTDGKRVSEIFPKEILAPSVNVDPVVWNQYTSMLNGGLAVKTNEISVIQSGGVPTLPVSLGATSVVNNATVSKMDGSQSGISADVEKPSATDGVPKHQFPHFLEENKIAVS
Method: universal PBM
Molecule type: double-stranded DNA, one strand shown
Sample: in vitro
Tested at: 600 nM
Notes: 8-mer, flanks averaged, mean of replicates
Reading: higher = stronger binding
Endpoint: E-score
GCGAGAAC: -0.168
CGCTATTA: 0.175
ACACGCTG: -0.11
CATCTTTC: 0.131
ACGATCGA: 0.0669
ATAGGACA: -0.0273
CCTTTCGC: -0.0907
CCCTTGAG: -0.155
CCTGCAAG: -0.23
ACAGCGCT: -0.0482
ATTGTTGG: 0.143
GACTTAAA: 0.111
GAGCAAGA: -0.0222
GTGTACAA: 0.169
CTCTCCTA: 0.112
GCGTAGCC: -0.29
CATCCATC: -0.087
AAGTCTGG: -0.148
CATTCATC: 0.121
CCTCGTCC: -0.216
GAGCCGAC: -0.396
AGTCCTCC: -0.0539
CGTGACCC: -0.269
ATGCCCTA: -0.0143
CGCTCAAC: -0.107

Study 4
Target: Interferon regulatory factor 5, full length, phosphomimetic (IRF5, Homo sapiens, UniProt Q13568-2, residues 1-514, S451D/S453D/S456D/S462D)
Method: protein-binding microarray
Molecule type: double-stranded DNA, one strand shown
Sample: in vitro
Tested at: 940 nM top
Notes: 60-bp whole probe
With: salmon DNA 0.4 mg/ml
Baseline: random background probes
Reading: higher = stronger binding
Endpoint: fitted relative affinity
Shared flanks, not repeated: GCCTAGCAC … GTCTTGATTCGCTTGACGCTGCTG
CCCTTACCGCATATCGGGGTGTGCTAG: -0.277 z-score
TTATGACTGCTACTGCTTTAGTGCTAG: -0.358 z-score
TGGATACTTTGCTGAACATCGTGCTAG: -0.151 z-score
GACGGTTTCCTCCTCCTGACGTGCTAG: 0.862 z-score
TTAGGTATCCTTCTCCTCTAGTGCTAG: 0.673 z-score
TTAGGTATCGGTATCGATTAGTGCTAG: 10.9 z-score
CTCTAACTCAAGATTCCTCTCGTGCTA: 0.639 z-score
TTAGAACTGAGGATCGATTAGTGCTAG: -0.392 z-score
TTAGAACTGAGTCTCGATTGGTGCTAG: 2.46 z-score
GGCGGTTTCGGTCTCGGGACGTGCTAG: 14.4 z-score
TCAAAATTTTTTTTCTAACTGTGCTAG: 0.249 z-score
TTACATTTCAGTTTCGATTAGTGCTAG: 9.61 z-score
TTAGGTCTCGGGACTGGGTTAGTGCTA: 1.54 z-score
GACGATTTCGGGTTTCGAAACGTGCTA: 3.22 z-score
TTAGGATTGGGACTGGGTTAGTGCTAG: -0.422 z-score
TTAGGTATCGGGACTGAGTTAGTGCTA: 4.09 z-score
GACGGTCTCGTTTTCCTGACGTGCTAG: 2.56 z-score
GACGGACTGGGTTTCGGCACGTGCTAG: 2.81 z-score
TCAGTTTCCATTTTCTGACTGTGCTAG: 2.92 z-score

A few entries again (study 3):
CGCTATTA: 0.175
AGTCCTCC: -0.0539
ATAGGACA: -0.0273
CGTGACCC: -0.269
ACAGCGCT: -0.0482
GAGCAAGA: -0.0222
AAGTCTGG: -0.148
CCTTTCGC: -0.0907
GAGCCGAC: -0.396
GACTTAAA: 0.111
